Assay results pooled from the literature.
Compare with care: the assays were run in different laboratories.
Target: Mitogen-activated protein kinase 14 (MAPK14, Homo sapiens, UniProt Q16539)
Sequence of UniProt Q16539 (whole entry, looked up): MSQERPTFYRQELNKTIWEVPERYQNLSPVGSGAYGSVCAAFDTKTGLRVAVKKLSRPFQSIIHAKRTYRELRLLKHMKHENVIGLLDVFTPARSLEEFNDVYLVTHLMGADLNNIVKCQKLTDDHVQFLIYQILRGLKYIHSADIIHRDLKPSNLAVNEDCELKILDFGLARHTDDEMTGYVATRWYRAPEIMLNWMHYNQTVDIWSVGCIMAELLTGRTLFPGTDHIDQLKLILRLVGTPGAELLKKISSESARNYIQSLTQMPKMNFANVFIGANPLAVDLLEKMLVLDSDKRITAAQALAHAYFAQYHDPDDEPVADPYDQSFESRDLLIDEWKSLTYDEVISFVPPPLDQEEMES

SMILES | assay | setting | endpoint | result
Oc1cc(-c2ccccc2Cl)[nH]n1 | binding, microscale thermophoresis | saturation not reached | Kd | 1150 µM
Cc1cc(NC(=O)c2cccc(-n3cc(NC(=O)Nc4ccc(F)cc4)cn3)c2)ccn1 | enzyme activity, inhibitor | – | IC50 | > 10 µM
Fc1ccc(-c2nc[nH]c2-c2ccnc(Nc3ccc(N4CCOCC4)cc3)c2)cc1 | enzyme activity, inhibitor, ELISA | – | IC50 | 0.021 µM
CN(C)c1ccc(C#CCOC(=O)[C@]2(C)C=C(C(=O)OC(C)(C)C)C(=O)CC2)cc1 | ligand displacement, FP | – | Ki | 3.1 µM
CCn1c(=O)c(Oc2ccc(F)cc2F)cc2cnc(NCCOC(C)C)nc21 | enzyme activity, inhibitor, FRET | – | IC50 | 0.025 µM
Cc1ccc(NC(=O)Nc2cnn(-c3cccc(C(=O)Nc4ccnc(C)c4)c3)c2)cc1 | enzyme activity, inhibitor | – | IC50 | > 10 µM
Nc1nnc(Nc2ccc(Cl)cc2)[nH]1 | SPR | – | Kd | 1380 µM
COC(=O)[C@@]1(Cc2ccccc2)C=C(C(=O)OC(C)(C)C)C(=O)CC1 | ligand displacement, FP | – | Ki | 0.8 µM
N#Cc1ccc(Nc2n[nH]c(N)n2)cc1 | binding, SPR | – | Kd | 635 µM
COC(=O)C1(C)C=C(C(=O)O)C(=O)CC1 (stereo not drawn) | ligand displacement, FP | – | Ki | > 200 µM
Cc1cc(NC(=O)c2cccc(-n3cc(NC(=O)Nc4ccc(Cl)cc4)cn3)c2)ccn1 | enzyme activity, inhibitor | – | IC50 | > 10 µM
COC(=O)C1(CCCCl)C=C(C(=O)OC(C)(C)C)C(=O)CC1 (stereo not drawn) | ligand displacement, FP | – | Ki | 1.2 µM
Cc1ccc([N+](=O)[O-])cc1S(=O)(=O)N(C)/N=C/c1cnc2ccc(Br)cn12 | enzyme activity, inhibitor, ADP detection | – | IC50 | > 10 µM
CCOC(=O)C1(C)C=C(C(=O)OC)C(=O)CC1 (stereo not drawn) | ligand displacement, FP | – | Ki | 8.5 µM
Cc1ccc(NC(=O)C(Cc2ccccc2)NC(=O)Cn2cnc(C(F)(F)F)c2)c(C)c1 (stereo not drawn) | enzyme activity, inhibitor, ELISA | – | IC50 | 0.404 µM

Some of these lines once more:
SMILES | assay | setting | endpoint | result
Cc1cc(NC(=O)c2cccc(-n3cc(NC(=O)Nc4ccc(F)cc4)cn3)c2)ccn1 | enzyme activity, inhibitor | – | IC50 | > 10 µM
